Experimental data collected from several papers.
Compare with care: the assays were run in different laboratories. ± marks the error that the study gave.

CC(C)C[C@H](NC(=O)[C@H](Cc1ccc(O)cc1)NC(=O)[C@H](Cc1c[nH]cn1)NC(=O)[C@H](CC(=O)O)NC(=O)[C@@H](NC(=O)[C@H](C)NC(=O)[C@H](CC(C)C)NC(=O)CNC(=O)CNC(=O)[C@@H](NC(=O)[C@@H](NC(=O)[C@H](CCCCN)NC(=O)CNC(=O)[C@@H](NC(=O)[C@H](CCCCN)NC(=O)[C@H](CCCCN)NC(=O)[C@H](C)NC(=O)[C@H](CCCNC(=N)N)NC(=O)[C@H](CC(N)=O)NC(=O)[C@H](Cc1ccccc1)NC(=O)[C@H](Cc1c[nH]c2ccccc12)NC(=O)[C@H](CCCCN)NC(=O)[C@H](CCCCN)NC(=O)[C@H](Cc1c[nH]c2ccccc12)NC(=O)CN)C(C)C)[C@@H](C)O)C(C)C)C(C)C)C(N)=O — acute toxic concentration (zebrafish embryos; 1 h, 4, 28, 52 hpf): 25 µg/mL
CC[C@H](C)[C@H](N)C(=O)N[C@H](C(=O)N[C@@H](CO)C(=O)N[C@H](C(=O)N[C@H](C(=O)NCC(=O)N[C@@H](CC(=O)O)C(=O)N[C@@H](Cc1c[nH]c2ccccc12)C(=O)N[C@H](C(=O)N[C@@H](CCCCN)C(=O)N[C@@H](CC(C)C)C(=O)N[C@H](C(=O)N[C@H](C(=O)N[C@@H](CC(=O)O)C(=O)N[C@H](C(=O)N[C@H](C(=O)N[C@@H](CC(N)=O)C(=O)N[C@@H](CCCCN)C(=O)N[C@@H](Cc1ccccc1)C(=O)N[C@H](C(=O)N[C@@H](CCCCN)C(=O)N[C@@H](CCCCN)C(=O)O)[C@@H](C)O)C(C)C)[C@@H](C)O)[C@@H](C)CC)[C@@H](C)CC)C(C)C)[C@@H](C)CC)[C@@H](C)O)[C@@H](C)CC — fractional helicity (circular dichroism; POPC vesicles; pH 7.5): 0.77
C[C@@H](O)[C@H](NC(=O)[C@H](CCCCN)NC(=O)[C@H](Cc1c[nH]c2ccccc12)NC(=O)CN)C(=O)N[C@@H](CCCNC(=N)N)C(=O)NC(C)(C)C(=O)N[C@@H](CCCNC(=N)N)C(=O)NC(C)(C)C(=O)N[C@H](C(=O)N[C@@H](CO)C(=O)N[C@@H](Cc1c[nH]cn1)C(=O)N[C@@H](Cc1ccc(O)cc1)C(=O)NCC(=O)O)[C@@H](C)O — lactate dehydrogenase (C57BL/6 mouse, blood; intravenous, 50 mg/kg, 10 h): 1000 to 2400 U/L
CC(C)[C@H](NC(=O)CNC(=O)[C@H](CCC(N)=O)NC(=O)[C@H](C)N)C(=O)O — subjects with severe adverse events (human; intravenous infusion, 15 mg/kg/h, 2 h infusion): 0%
COC(=O)C[C@H](NC(=O)[C@H](C)NC(=O)[C@@H](NC(=O)[C@H](CC(=O)OC)NC(=O)[C@@H](NC(=O)c1ccc2ccccc2n1)C(C)C)C(C)C)C(=O)COc1c(F)cccc1F — core body temperature (rat pups; 1 mg/kg, 48 h): 36.8 ± 0.23 °C
O.[C-]#[O+].[C-]#[O+].[C-]#[O+].[Re+].c1cnc2c(c1)ccc1cccnc12 — capacity factor (RP-HPLC C18 column, measured: MeCN adduct; MeCN:water 40:60, 0.1% TFA; isocratic elution): 4.6
C[C@H]1N=C(c2ccccc2F)c2cc(Br)ccc2-n2cnc(C(=O)NCCS(=O)(=O)O)c21 — excretion in urine and feces (Swiss Webster mouse; intraperitoneal, 750 µg of parent drug, 0 to 48 h; baseline: dose): 16.6 ± 1%
CCCCCCCC/C=C\CCCCCCCCOP(O)(O)=S.N — Cmax (mouse, male, irradiated; sc, dose not given, 15.6 Gy partial-body, dosed 24 h after): 622 ng/mL
CC[C@H](C)C(=O)N1CCC(NC(=O)Nc2ccc(OC(F)(F)F)c(F)c2)CC1 — subjects with UTI TEAE (healthy volunteers; oral, 0.5 mg single dose): 16.7%
CC(C)[C@H](NC(=O)CNC(=O)[C@H](CCC(N)=O)NC(=O)[C@H](C)N)C(=O)O — subjects given concomitant medication (healthy male volunteers; intravenous, 15 mg/kg/h, 2 h, with: LPS 2 ng/kg): 0%
